# Results pooled from the literature.
# A part holds a random share of what one study measured. Substitutions count along the parent as printed.

# Block 1
# Target: CCNB2, cyclin fold, Cln2 fusion (human)
# Technique: yeast growth competition, sequencing
# Medium: yeast
# Setting: weak parent motif
# Relative to: not given
# Direction: higher = stronger binding
# Starting sequence: CDKN1A docking peptide (human); SKACRRLFGPVDS
Change,normalised enrichment score
SKACRRKFGPVDS [L7K],0.765
SKACRRLFQPVDS [G9Q],0.121
SKVCRRLFGPVDS [A3V],0.398
SKARRRLFGPVDS [C4R],0.493
SLACRRLFGPVDS [K2L],-0.217
SKDCRRLFGPVDS [A3D],0.0852
SKACRRLKGPVDS [F8K],0.333
SKAMRRLFGPVDS [C4M],0.259
SKACRRLSGPVDS [F8S],-0.0775
SKACRRGFGPVDS [L7G],-0.0292
SKACRRLPGPVDS [F8P],0.0864
SKACRRLFPPVDS [G9P],0.283
SKACRRLVGPVDS [F8V],0.427
SKACRCLFGPVDS [R6C],-0.251

# Block 2
# Target: ABI1, truncated, D143A, DHFR fusion (Arabidopsis thaliana)
# Technique: DHFR PCA, deep sequencing
# Medium: yeast
# Setting: methotrexate growth selection, single substitutions
# Added: (+)-ABA 58 µM
# Relative to: wild-type fitted maximum
# Direction: higher = stronger binding
# Starting sequence: PYL1, truncated, DHFR fusion (Arabidopsis thaliana); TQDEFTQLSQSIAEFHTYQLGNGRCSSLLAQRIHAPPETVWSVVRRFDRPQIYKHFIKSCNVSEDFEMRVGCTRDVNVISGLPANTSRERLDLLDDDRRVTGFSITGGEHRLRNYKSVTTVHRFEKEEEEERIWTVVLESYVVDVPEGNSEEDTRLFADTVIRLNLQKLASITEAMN; partner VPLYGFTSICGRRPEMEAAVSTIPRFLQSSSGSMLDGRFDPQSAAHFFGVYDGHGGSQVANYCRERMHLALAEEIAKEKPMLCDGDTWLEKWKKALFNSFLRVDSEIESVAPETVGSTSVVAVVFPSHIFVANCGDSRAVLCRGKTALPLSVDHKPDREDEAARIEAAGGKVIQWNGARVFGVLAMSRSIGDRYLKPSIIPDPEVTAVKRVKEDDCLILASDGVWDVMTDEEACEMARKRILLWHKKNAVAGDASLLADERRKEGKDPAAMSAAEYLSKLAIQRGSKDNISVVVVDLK
Change,relative binding score [%]
E147A,81.9
Y115G,7.63
S117H,2.23
R45S,61.5
R98Y,55.4
G21V,87.6
E139H,68.6
R69A,82.7
L138P,-14.4
S42Q,97.1
Y115M,23.7
S104L,12.9
L91I,12.8

# Block 3
# Target: UBE2E1 UBC core domain (UniProt P51965)
# UniProt P51965, sequence (whole entry, looked up): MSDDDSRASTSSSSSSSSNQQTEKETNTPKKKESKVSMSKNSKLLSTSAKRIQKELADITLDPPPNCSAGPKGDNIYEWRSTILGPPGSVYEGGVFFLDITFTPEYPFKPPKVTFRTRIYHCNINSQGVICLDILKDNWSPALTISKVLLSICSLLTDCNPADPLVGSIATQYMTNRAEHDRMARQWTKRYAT
# Technique: yeast two-hybrid
# Medium: yeast
# Setting: mostly zero background
# Relative to: not given
# Direction: higher = stronger interaction
# B1: RC3H1 RING domain (UniProt Q5TC82); chain QAPQWTDFLSCPICTQTFDETIRKPISLGCGHTVCKMCLNKLHRKACPFDQTTINTDIELL
# B2: TRAF5 RING domain (UniProt O00463); chain FVERLEERYKCAFCHSVLHNPHQTGCGHRFCQHCILSLRELNTVPICPVDKEVIKSQEVFK
# B3: DTX4 RING domain (UniProt Q9Y2E6); chain QKVRHPPDEDCTICMERLTAPSGYKGPQPTVKPDLVGKLSRCGHVYHIYCLVAMYNNGNKDGSLQCPTCKTIYGVKTGTQ
# B4: TRIM13 RING domain (UniProt O60858); chain MELLEEDLTCPICCSLFDDPRVLPCSHNFCKKCLEGILEGSVRNSLWRPAPFKCPTCRKETSATGINS
# B5: TRIM5 RING domain (UniProt Q9C035); chain ILVNVKEEVTCPICLELLTQPLSLDCGHSFCQACLTANHKKSMLDKGESSCPVCRISYQPENIRP
# B6: TRIM24 RING domain (UniProt O15164); chain EAARLNLLDTCAVCHQNIQSRAPKLLPCLHSFCQRCLPAPQRYLMLPAPMLGSAETPPPVPAPGSPVSGSSPFATQVGVIRCPVCSQECAERHII
# B7: TRIM43 RING domain (UniProt Q96BQ3); chain FSHAFQKELTCVICLNYLVDPVTICCGHSFCRPCLCLSWEEAQSPANCPACREPSPKMDFKT
Sequence,lacZ reporter activity
ASLPTSEEDLCPICYAHPISAVFQPCGHKSCKACINQHLMNNKDCFFCKTTIVSVEDWE (RNF123 RING domain (UniProt Q5XPI4)),0
B1 (RC3H1 RING domain),0
B2 (TRAF5 RING domain),0
B3 (DTX4 RING domain),0
FQGDVDEDLICPICSGVLEEPVQAPHCEHAFCNACITQWFSQQQTCPVDRSVVTVAHLRP (RNF41 RING domain (UniProt Q9H4P4)),0
B4 (TRIM13 RING domain),0
B5 (TRIM5 RING domain),0
B6 (TRIM24 RING domain),0
B7 (TRIM43 RING domain),0

# Block 4
# Target: Histone acetyltransferase KAT6A, both winged helices, GST fusion (KAT6A, Homo sapiens, UniProt Q92794, residues 1-181)
# Technique: protein binding microarray
# Form: double-stranded DNA, one strand shown
# Medium: in vitro
# Concentration: not given
# Setting: 8-mer, flanks averaged, mean of 2 arrays, mostly near background
# Relative to: not given
# Direction: higher = stronger binding
# Residues (chain): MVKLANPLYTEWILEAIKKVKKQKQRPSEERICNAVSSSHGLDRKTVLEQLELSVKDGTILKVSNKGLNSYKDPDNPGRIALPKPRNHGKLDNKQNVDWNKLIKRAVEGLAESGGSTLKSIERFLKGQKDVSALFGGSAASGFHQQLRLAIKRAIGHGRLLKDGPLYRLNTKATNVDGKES
Strand,E-score
ACGCATAC,0.222
TACTTATA,0.0189
AGTGTCAC,-0.0283
ACCGACAG,0.0776
GGCCGGTA,0.252
AGTAAAAA,-0.124
AAATTCCG,0.0993
CGTACACA,0.0814
AGGGGGTA,-0.25
ACGGGAAC,0.349
AGGGCCCA,-0.258
ACGTTGAC,-0.085
AGAAGTTC,-0.0919
ACCTCGTA,-0.0664
AATACACG,0.105
TCATCGCA,-0.00136
CAGTGGTC,-0.0538
ACACCCTA,-0.102
CCTTTGCC,0.023
AACGGTGT,0.0632
GGAGCCAA,-0.147
GAATGGGC,-0.101
AGATTACC,-0.111
GACCATTA,-0.0553

# Repeated from above (block 1):
Change,normalised enrichment score
SKACRRLSGPVDS [F8S],-0.0775
SKACRRLFPPVDS [G9P],0.283
SKACRRLPGPVDS [F8P],0.0864
SKVCRRLFGPVDS [A3V],0.398
SLACRRLFGPVDS [K2L],-0.217
SKACRRKFGPVDS [L7K],0.765
SKACRRLKGPVDS [F8K],0.333
SKACRRLFQPVDS [G9Q],0.121
